Measurements gathered from unrelated publications.
Protocols differ between the studies behind these lines. Several values in a cell are separate wells, animals, samples, runs or records. ± marks the error that the study gave.
UniProt P51575, sequence (whole entry, unmodified, looked up): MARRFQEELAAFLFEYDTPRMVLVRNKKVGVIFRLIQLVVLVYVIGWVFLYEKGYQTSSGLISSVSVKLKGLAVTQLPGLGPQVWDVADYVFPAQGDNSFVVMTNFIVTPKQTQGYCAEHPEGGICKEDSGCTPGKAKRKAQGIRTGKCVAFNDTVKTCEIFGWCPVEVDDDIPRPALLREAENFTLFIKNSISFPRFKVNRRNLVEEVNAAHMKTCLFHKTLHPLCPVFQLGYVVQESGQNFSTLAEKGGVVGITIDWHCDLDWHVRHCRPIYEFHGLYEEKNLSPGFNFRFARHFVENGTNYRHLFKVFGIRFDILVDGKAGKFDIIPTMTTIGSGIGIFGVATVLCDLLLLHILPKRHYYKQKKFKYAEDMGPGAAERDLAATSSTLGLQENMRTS

SMILES	target or system	assay	test system	setting	scale	quantity	value
CCn1cc(-c2cc(Cn3ccnc3)cc3c2CCN([C@H](c2cc(OC)ccn2)C2CC2)C3=O)c(C(F)(F)F)n1	SK-MEL-24	cell growth, inhibitor		120 h		EC50	> 30000 nM
O=C(Nc1nc2cccc(-c3ccc(CN4CCS(=O)(=O)CC4)cc3)n2n1)C1CC1		refers to: first degree atrioventricular block	human rheumatoid arthritis patients	oral, 30 mg once daily, 4 weeks, regardless of relatedness		treatment-emergent adverse events	0%
COc1ccc(CNC(=O)c2ccc(CNCc3cnc4nc(N)nc(N)c4n3)cc2)cc1OC	786-O	high-content imaging, refers to: MitoTracker Red uptake		10 µM		mitochondrial toxicity	-1.65 ± 32.6%
Nc1ncnc2c1ncn2[C@@H]1O[C@H](COP(=O)(O)CP(=O)(O)OP(=O)(O)O)[C@@H](O)[C@H]1O	P2X purinoceptor 1 (P2RX1, Homo sapiens, UniProt P51575, K215A)	saturation binding	HEK293	25 nM		specific binding	2130 CCPM and 2600 CCPM
O=C(COC(=O)c1ccccc1Nc1cccc(C(F)(F)F)c1)Nc1ccc(F)cc1	RAW264.7	Western blot		concentration not given, 72 h, unit not given, together with: LPS	reference: control	mTOR protein level	0.362
CC(C)NCC(O)c1ccc(O)c(O)c1 (stereo not drawn)	mouse ventricular cardiomyocytes			dose not given, 0.347 s		sarcomere length	1.8 µm
CC1=C(Cc2cn(CCN3CCC(=O)CC3)nn2)C(=O)c2ccccc2C1=O	Schistosoma mansoni		adult worms	10 µM, 24 h		killing	45.4%
CCn1cc(-c2cc(Cn3ccoc3=N)cc3c2CCN([C@@H](C)c2cc(OC)ccn2)C3=O)c(C(F)(F)F)n1	KMS-26	cell growth, inhibitor		120 h		EC50	3.52 nM
C[C@H](Nc1ccc2c(c1)OCCn1cc(N3C(=O)OC[C@H]3C(F)F)nc1-2)C(N)=O	HGC-27	cell growth, CellTiter-Glo		120 h		Hill coefficient GR curve	1.08
COc1cnc2cccc(N3CCc4c(cc(Cn5ccnc5C)cc4-c4cn(C)nc4C(F)(F)F)C3=O)c2c1	NCI-H596	cell growth, inhibitor		120 h		EC50	5680 nM
CSCC[C@H](NC(=O)[C@H](Cc1ccc(OS(=O)(=O)O)cc1)NC(=O)[C@@H](N)CC(=O)O)C(=O)NCC(=O)N[C@@H](Cc1c[nH]c2ccccc12)C(=O)N[C@@H](CCSC)C(=O)N[C@@H](CC(=O)O)C(=O)N[C@@H](Cc1ccccc1)C(N)=O	HEK293T control virus	agonist, GloSensor cAMP		2000 nM, no receptor expressed	higher = more cAMP	cAMP accumulation	0.222 a.u.
COC(=O)[C@H]1[C@H]2C[C@@H]3c4[nH]c5cc(OC)ccc5c4CCN3C[C@H]2C[C@@H](OC(=O)c2cc(OC)c(OC)c(OC)c2)[C@@H]1OC	Nedd8-cullin1 interaction	neddylation, AlphaScreen		100 µM		inhibition	19.8%
CCc1cnc(N2CCC(c3nc(COc4ccc(-n5cnnn5)cc4)cs3)CC2)nc1	HEK293T	RNA-seq, refers to: HSPA1A mRNA		10 µM, 6 h	reference: vehicle	log2 fold change	-0.623
Cc1cc(Nc2ncc(Cl)c(Nc3ccccc3S(=O)(=O)C(C)C)n2)c(OC(C)C)cc1C1CCNCC1	CLB-GE	phosphoproteomics LC-MS/MS, refers to: SOS1 phosphorylation		200 nM, 60 min	reference: untreated	log2 fold change	-3.24
Cc1nc(Nc2n[nH]c3c2CN(C(=O)N[C@H](CN(C)C)c2ccccc2)C3(C)C)c2sccc2n1	HD-MB03			concentration not given, together with: ribociclib NG	reference: ribociclib over DMSO	fold change in IC50	1.85
c1ccc2[nH]ccc2c1	HCT-8	RNA-seq, refers to: SOCS1		concentration not given		mRNA level, LS mean	10.3 counts per million
Cc1cc(=O)[nH]n1-c1nc(-c2ccc(Cl)cc2)c2c(NC(=O)c3ccccc3)nnc-2[nH]1	A549/ATCC	NCI60 SRB		10 µM		growth percent	103%
CC1=C(Cn2cc(C(C)(C)O)nn2)C(=O)c2ccccc2C1=O	Schistosoma mansoni		adult worms	10 µM, 24 h		killing	39.4%
CN(C)C(=O)c1cc2cnc(Nc3ccc(N4CCNCC4)cn3)nc2n1C1CCCC1	HD-MB03	cell growth		168 h		IC50	2850 nM
Cn1cc(-c2ccc(-c3cncc(Cl)c3N3CCC4(CCNC4=O)CC3)cc2)cn1	COLO 205	gene expression, microarray, refers to: CASP1 mRNA		concentration not given, 2 h	reference: untreated cells	log2 fold change	-1.05
CCOc1cc(C(C)(C)C)ccc1C1=N[C@@](C)(c2ccc(Cl)cc2)[C@@](C)(c2ccc(Cl)cc2)N1C(=O)N1CCN(CCCS(C)(=O)=O)CC1	HD-MB03	cell growth		168 h, single agent		IC50	479 nM
COc1cc2ncnc(Nc3ccc(Oc4ccccc4)c(C)c3C)c2cc1OC.Cl	LoVo (KRAS G13D)	cell viability, resazurin		3 µM, 72 h, together with: trametinib 0 nM	reference: DMSO	fractional effect	0.273 and 0.296
CC(=O)O[C@H]1C(=O)[C@@]2(C)[C@H]([C@H](OC(=O)c3ccccc3)[C@]3(O)C[C@H](OC(=O)[C@H](O)[C@@H](NC(=O)c4ccccc4)c4ccccc4)C(C)=C1C3(C)C)[C@]1(OC(C)=O)CO[C@@H]1C[C@@H]2O	KB-C2 (P-gp overexpressing)	cell growth			reference: IC50 in KB-C2 over KB-3-1	fold resistance	506
CCN(CC)CCNC(=O)c1ccc(NC(C)=O)cc1	Nedd8-cullin1 interaction	neddylation, AlphaScreen		100 µM		inhibition	35.5%
CN(C)C/C=C/C(=O)Nc1ccc(C(=O)Nc2cccc(Nc3ncc(Cl)c(-c4c[nH]c5ccccc45)n3)c2)cc1	HD-MB03			concentration not given, together with: ribociclib NG	reference: ribociclib over DMSO	fold change in IC50	1.73
CCOc1ccc(-c2nc3cc(-c4nc5cc(N6CCN(C)CC6)ccc5[nH]4)ccc3[nH]2)cc1OCC	SN12C	SRB		10 µM, 48 h		growth percent	20.8%
CNC(=C[N+](=O)[O-])NCCSCc1csc(CN(C)C)n1	primary rat hippocampal/cortical neuron-glia cultures			1 µM, together with: 1 µM α-synuclein oligomers		reversal of trafficking deficit	8.07%

A few entries again:
SMILES	target or system	assay	test system	setting	scale	quantity	value
CNC(=C[N+](=O)[O-])NCCSCc1csc(CN(C)C)n1	primary rat hippocampal/cortical neuron-glia cultures			1 µM, together with: 1 µM α-synuclein oligomers		reversal of trafficking deficit	8.07%
COC(=O)[C@H]1[C@H]2C[C@@H]3c4[nH]c5cc(OC)ccc5c4CCN3C[C@H]2C[C@@H](OC(=O)c2cc(OC)c(OC)c(OC)c2)[C@@H]1OC	Nedd8-cullin1 interaction	neddylation, AlphaScreen		100 µM		inhibition	19.8%
